Experimental data of several laboratories.
Lines come from different studies, so protocols differ. Several values in a cell are separate wells, animals, samples, runs or records. Numbers after ± are the reported error.

Compound | target or system | test | test system | conditions | how to read | quantity | result
C[C@H](CCC(=O)NCCS(=O)(=O)O)[C@H]1CC[C@H]2[C@@H]3CC[C@@H]4C[C@H](O)CC[C@]4(C)[C@H]3CC[C@]12C | rat PCK cystic cholangiocytes | cell confluence | – | 20 µM, 48 h | reference: untreated | proliferation increase | 62%
O=C(O)C[C@H](O)C[C@H](O)/C=C/c1c(C2CC2)nc2ccccc2c1-c1ccc(F)cc1 | COS-7 | WST-8 | – | 3 µM, 24 h, 0.1% DMSO, unit not given | reference: vehicle control | metabolic activity | 0.91 ± 0.09
NC(=O)c1cnc2[nH]ccc2c1N[C@@H]1[C@@H]2CC3C[C@H]1C[C@@](O)(C3)C2 | – | CD4+ CD28+ naive T cells, flow cytometry | Japanese humans, peripheral blood | 200 mg single dose | reference: baseline | percent change | 2.35%
COc1cc2ncnc(Nc3ccc(Oc4ccccc4)cc3C)c2cc1OC | LoVo (KRAS G13D) | resazurin | – | 0.3 µM, 72 h, with: trametinib 0 nM | – | viability | 99.5%
C=CC(=O)N1CCCN(C(=O)c2cc(Sc3cnc(NC(=O)C4CC4)s3)c(C)cc2OC)C[C@H]1C | human Th2-polarized CD4 T cells | MSD, refers to: IL-4, IL-5, IL-13 | – | polarized 6 days, with: anti-CD3/CD28 restimulation | – | Th2 cytokine production | inhibited
Cn1cc(-c2ccc(-c3cncc(Cl)c3N3CCC4(CCNC4=O)CC3)cc2)cn1 | COLO 205 | gene expression, microarray, refers to: STC1 mRNA | – | concentration not given, 2 h | reference: untreated cells | log2 fold change | 1.15
CCc1cc(C(=O)NC)c2nccc(N3CCc4c(cc(Cn5ccnc5)cc4-c4cn(C)nc4C(F)(F)F)C3=O)c2c1 | – | – | Sprague Dawley rats | oral, 100 mg/kg twice daily, 7 days | reference: vehicle | serum MCH change | 1.14%
CC(C)[C@H](N)C(=O)N1CCC[C@H]1B(O)O | MV4-11 | annexin V/PI flow cytometry, refers to: annexin V+ PI- | – | 2 µM, 24 h | – | early apoptotic cells | 0.92%
Cc1cc(/N=N/c2ccc(S(=O)(=O)Nc3ccccn3)cc2)c(N)cc1O | OCI-Ly1 | – | – | 1 µM, 120 h | – | viability | 120%
C=CCNC1=C2C[C@@H](C)C[C@H](OC)[C@H](O)[C@@H](C)/C=C(\C)[C@H](OC(N)=O)[C@@H](OC)/C=C\C=C(/C)C(=O)NC(=CC1=O)C2=O | iPSC-derived cardiomyocytes | concentration-response fit | – | – | reference: vehicle | fitted bottom MyBP-C/MYH ratio | 33.1%
COc1cnc2cccc(N3CCc4c(cc(Cn5ccnc5C)cc4-c4cn(C)nc4C(F)(F)F)C3=O)c2c1 | SNU1196 | cell growth | – | 120 h | – | EC50 | > 30 µM
O=C(CCCCCCC(=O)Nc1ccc(I)cc1)NO | OCI-Ly1 | – | – | 0.1 µM, 120 h | – | viability | 87.6%
Clc1ccc(C(c2c[nH]c3ccccc23)c2c[nH]c3ccccc23)cc1 | COS-7 | – | – | 30 µM, 24 h, 0.1% DMSO, unit not given | reference: vehicle control | necrotic cells | 5.11 ± 1.42
Cc1nc(NC(=O)N2CCC[C@H]2C(N)=O)sc1-c1ccnc(C(C)(C)C(F)(F)F)c1 | KPL4 | CellTiter-Glo | – | 120 h | – | Hill coefficient GR curve | 1.41
NC(=O)c1cccnc1 | OCI-Ly1 | – | – | 0.1 µM, 120 h | – | viability | 193%
[Cl-].[Cl-].[Ru+2].c1cnc2c(c1)ccc1cccnc12.c1cnc2c(c1)ccc1cccnc12.c1csc(-c2ccc(-c3ccc(-c4ccc(-c5nc6c7cccnc7c7ncccc7c6[nH]5)s4)s3)s2)c1 | SK-MEL-28 | cytotoxicity, resazurin | – | dark, normoxia | – | EC50 | < 100 µM
CCCN1CCN(c2ccc3[nH]c(-c4ccc5[nH]c(-c6cc(OC)c(OC)c(OC)c6)nc5c4)nc3c2)CC1 | 786-0 | cell growth, NCI-60 SRB | – | 10 µM, 48 h | – | growth percent | 77.3%
Clc1ccc(N/N=C(\c2ccccc2)c2ccccn2)nc1 | OCI-Ly1 | – | – | 1 µM, 120 h | – | viability | 0.41%
Cc1cc(O)c2c(c1)C(=O)c1cc(O)cc(O)c1C2=O | HepaRG co-cultured with HK-2 | MTT | – | 33.33 µM, 48 h | reference: untreated control | cell viability | 46.2 ± 3.94%
O=C(O)c1ccnc(C(=O)O)c1 | OCI-Ly1 | – | – | 1 µM, 120 h | – | viability | 169%
COc1c(O)cc2c(c1O)C(=O)c1c(cc(C)c(O)c1OC)C2=O | HepaRG co-cultured with HK-2 | MTT | – | 133.33 µM, 48 h | reference: untreated control | cell viability | 18.2 ± 4.25%
CCn1cc(-c2cc(Cn3ccoc3=N)cc3c2CCN([C@@H](C)c2cc(OC)ccn2)C3=O)c(C(F)(F)F)n1 | Lu-65 | cell growth, inhibitor | – | 120 h | – | EC50 | > 30 µM
CCC(=O)N1CCOc2c(cc(-c3ccc(OC)c(OC)c3)cc2OC[C@H]2CCCN(C)C2)C1 | OCI-Ly1 | – | – | 0.5 µM, 120 h | – | viability | 125%
CC(C)C[C@H](NC(=O)C[C@H](O)[C@H](CC(C)C)NC(=O)[C@H](Cc1c[nH]cn1)NC(=O)CNC(=O)[C@@H](NC(=O)[C@H](C)NC(=O)[C@H](Cc1c[nH]c2ccccc12)NC(=O)[C@H](CCC(N)=O)NC(=O)[C@@H](Cc1ccccc1)NC(=O)COCCOCCNC(=O)CCC(C(=O)O)N1CCN(CC(=O)O)CCN(CC(=O)O)CCN(CC(=O)O)CC1)C(C)C)C(N)=O (some centres unmarked) [lutetium-177 labelled] | – | – | BALB/c nu/nu mice, lung | intravenous, 250 pmol, 1 h, with: PA 300 µg | – | tissue uptake | 0.9 ± 0.7 %ID/g
CC/C(=N\NC(=O)NCc1cccc(O)c1)c1ccc(O)c(C)c1O | SK-OV-3 | gene expression, microarray, refers to: TNFSF10 | – | 10 µM, 24 h | reference: DMSO | log ratio | -3.12
O=C(/C=C/C=C/C=C/C1CCCCC1)NC1=C[C@@](O)(/C=C/C=C/C=C/C(=O)NC2=C(O)CCC2=O)[C@@H]2O[C@@H]2C1=O | SNU878 | cell growth, CellTiter-Glo | – | 78 h | – | GI50 | 26.6 µM
CCN(CCO)CCCC(C)Nc1ccnc2cc(Cl)ccc12 (centres unmarked) | hiPSC-derived ventricular cardiomyocytes | perforated patch voltage clamp | – | 10 µM, 3-5 min, unit not given | reference: pre-drug control | steady funny current | 0.9 and 1.41 and 1.16 and 0.97
CCCCCCCCCCCCCCCc1cccc(O)c1C(=O)O | OCI-Ly1 | – | – | 1 µM, 120 h | – | viability | 157%
CC(C)(c1ccc(O)cc1)c1ccc(O)cc1 | HepG2 spheroids | Hoechst flow cytometry | – | 40 µM, 24 h | – | G1 phase cells | 72 ± 1.83%

Some of these lines once more:
Compound | target or system | test | test system | conditions | how to read | quantity | result
C[C@H](CCC(=O)NCCS(=O)(=O)O)[C@H]1CC[C@H]2[C@@H]3CC[C@@H]4C[C@H](O)CC[C@]4(C)[C@H]3CC[C@]12C | rat PCK cystic cholangiocytes | cell confluence | – | 20 µM, 48 h | reference: untreated | proliferation increase | 62%
CC/C(=N\NC(=O)NCc1cccc(O)c1)c1ccc(O)c(C)c1O | SK-OV-3 | gene expression, microarray, refers to: TNFSF10 | – | 10 µM, 24 h | reference: DMSO | log ratio | -3.12
Clc1ccc(C(c2c[nH]c3ccccc23)c2c[nH]c3ccccc23)cc1 | COS-7 | – | – | 30 µM, 24 h, 0.1% DMSO, unit not given | reference: vehicle control | necrotic cells | 5.11 ± 1.42
